# Measured values pooled from the literature.
# Lines come from different studies, so protocols differ. Several values in a cell are separate wells, animals, samples, runs or records. ± gives the spread as reported.
# Chain of UniProt Q05655 (whole entry, looked up): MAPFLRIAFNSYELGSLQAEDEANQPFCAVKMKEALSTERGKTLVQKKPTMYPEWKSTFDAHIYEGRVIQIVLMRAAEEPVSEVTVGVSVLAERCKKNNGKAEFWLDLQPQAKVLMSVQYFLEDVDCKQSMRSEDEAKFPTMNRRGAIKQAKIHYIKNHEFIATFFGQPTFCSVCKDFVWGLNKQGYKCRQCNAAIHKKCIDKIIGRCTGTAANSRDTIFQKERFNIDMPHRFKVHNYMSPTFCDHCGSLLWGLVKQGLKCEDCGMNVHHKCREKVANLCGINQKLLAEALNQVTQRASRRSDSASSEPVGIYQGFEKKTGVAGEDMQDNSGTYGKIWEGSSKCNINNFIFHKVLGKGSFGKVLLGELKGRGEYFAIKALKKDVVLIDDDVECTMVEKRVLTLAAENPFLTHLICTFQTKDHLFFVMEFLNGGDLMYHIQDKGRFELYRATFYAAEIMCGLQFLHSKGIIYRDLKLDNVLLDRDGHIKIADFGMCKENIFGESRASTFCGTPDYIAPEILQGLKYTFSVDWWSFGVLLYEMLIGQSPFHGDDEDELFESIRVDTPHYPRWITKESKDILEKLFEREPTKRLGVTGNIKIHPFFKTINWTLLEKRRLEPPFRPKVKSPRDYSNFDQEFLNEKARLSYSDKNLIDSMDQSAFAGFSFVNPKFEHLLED
SMILES,target or system,test,test system,conditions,how to read,measurement,result
Cn1ncc(-c2nc(N[C@H]3CC[C@H](N)CC3)ncc2Cl)c1CC1CC1,,phase I clinical trial,"R/R AML or high-risk MDS patients, RUNX1-mutated",11 mg or higher,,CR/CRi rate,30%
CS(=O)(=O)c1ccc(-c2nnc(/C=C/c3nnc(-c4ccc(C#N)cc4)o3)n2-c2ccccc2Cl)nc1,,"RNA-seq GSEA, item: HALLMARK_UNFOLDED_PROTEIN_RESPONSE","organoids, small intestinal, Apc Q1405X, mouse","dose not given, wild-type organoids","relative to: DMSO, direction not given",normalized enrichment score,-2.06
CC12C(=O)C(C)(C(c3ccccc3)=C1c1ccccc1)C1(Br)C(=O)N(CCNCCN)C(=O)C21.O=C(O)C(F)(F)F.O=C(O)C(F)(F)F (centres unmarked),,"HPLC, item: CO-release by-product",TRIS-sucrose buffer,"pH 7.4, 37 °C",,time to 50% conversion,75 min and 63 min and 65 min and 77 min and 95 min
CC[C@@H](C)[C@@H](NC(=O)[C@@H](Cc1ccc(O)cc1)NC(=O)[C@H]1CCCN1C(=O)[C@@H](CCCNC(=N)N)NC(=O)[C@H](N)Cc1c[nH]cn1)C(=O)N[C@H](C)C(=O)N[C@H](Cc1c[nH]cn1)C(=O)N[C@H](CCCNC(=N)N)C(=O)N[C@H](CCCCNC(=O)c1cccc(S(=O)(=O)F)c1)C(=O)N[C@H](Cc1ccc(O)cc1)C(=O)N[C@H](CO)C(=O)N[C@H](Cc1ccccc1)C(N)=O,,,mouse orthotopic GL261-Luc glioma,"intraperitoneal, 3.9 mg/kg, no detectable bioluminescence",,tumour-free survival,> 90 days
CCC[C@H](NC(=O)/C(C#N)=C/c1cccc(Br)n1)c1ccccc1,human coronavirus OC43,virus-induced cell killing,MRC-5,screen,,maximum inhibition,3.38%
C[C@]1(CO)Cc2ncn(-c3ccc(C#N)c(Cl)c3)c2C(=O)O1,,"aldosterone synthesis, inhibitor, item: potassium","healthy Japanese adults, urine","3 mg, 0-24 h after first dose, multiple rising dose",,urinary excretion,39.4 mmol
CC[C@H](C)[C@@H]1NC(=O)[C@@H]2CCCN2C(=O)[C@H](CC(C)C)NC(=O)[C@H](CC(C)C)NC(=O)CNC(=O)[C@@H](NC(=O)[C@@H](NC(=O)[C@H](CC(=O)O)NC(=O)CNC(=O)[C@@H](NC(=O)[C@H](C)NC(=O)CNC(=O)[C@H](CCCCN)NC(=O)[C@H](CC(C)C)NC(=O)[C@H](CC(C)C)NC(=O)[C@H](CCCCN)NC(=O)CNC(=O)[C@@H](NC(=O)[C@@H](N)CC(C)C)C(C)C)C(C)C)C(C)C)CSSC[C@@H](C(=O)O)NC1=O,,"RNA-seq, item: Lck","mouse, traumatic brain injury model, frontal cortex and hippocampus",dose not given,relative to: TBI alone,log2 fold change,-1.48
CCCCC1(CCCC)CN(c2ccccc2)c2cc(SC)c(OCC(=O)N[C@@H](C(=O)NCC(=O)O)c3ccccc3)cc2S(=O)(=O)C1,,item: HDL cholesterol,"human, serum","20 mg once daily, day 2",,serum HDL-C,51.8 mg/dL
O=C(O)/C=C/C(=O)O.Oc1cccc2[nH]cc(CCNCc3ccccc3)c12,,,C57BL/6J mice,"subcutaneous, 3 mg/kg",relative to: pre-session baseline,body temperature change,-0.1 ± 0.1 °C
C=CCN1CC[C@]23c4c5ccc(O)c4O[C@H]2C(=O)CC[C@@]3(O)[C@H]1C5,,,B6SJL mice,"4 mg/kg, compound alone",,tail-flick latency,no effect
COc1ccc(CCC2CCCC(CCc3ccc(OC)cc3)N2C[C@@H](O)CO)cc1.Cl (stereo in doubt),,methamphetamine-evoked dopamine release,rat striatal slices,"1 to 100 µM, added: methamphetamine 5 µM",,inhibition,inhibited
CC[C@H](C)C[C@H](C)CCCCCCCCC(=O)N[C@H]1C[C@@H](O)[C@@H](NCCN)NC(=O)[C@@H]2[C@@H](O)CCN2C(=O)[C@H]([C@H](O)CCN)NC(=O)[C@H]([C@H](O)[C@@H](O)c2ccc(O)cc2)NC(=O)[C@@H]2C[C@@H](O)CN2C(=O)[C@H]([C@@H](C)O)NC1=O,,calcein leakage,DOPC/CHOL liposomes,"concentration not given, added: 20 wt% PEG-8000",,fusion time constant,7 ± 2 min
CC(C)n1nc(-c2ccc3oc(N)nc3c2)c2c(N)ncnc21,human coronavirus OC43,virus-induced cell killing,MRC-5,screen,,maximum inhibition,11.9%
C[C@H]1O[C@@H](O[C@H]2CC[C@@]3(C)[C@@H](CC[C@]4(C)[C@@H]3C=C[C@]35OC[C@@]6(CCC(C)(C)C[C@H]63)[C@@H](O)C[C@]54C)[C@]2(C)CO)[C@H](O)[C@@H](O[C@@H]2O[C@H](CO)[C@@H](O)[C@H](O)[C@H]2O)[C@H]1O,,,"mouse, chronic-plus-binge ethanol, hepatic SIRT1 knockdown, liver","dose not given, high dose",,NAD+/NADH ratio,2.2 and 2.36 and 2.65 and 2.28
Cc1cn([C@H]2O[C@@H](CO[P@@](=O)(N[C@@H](C)C(=O)OC(C)C)Oc3ccccc3)[C@H](O)[C@H]2F)c(=O)[nH]c1=O,,item: detectable HBV DNA,adults with chronic hepatitis B,"25 or 50 mg, week 12, after treatment discontinuation",,virologic relapse,56%
Cc1cccc(C)c1NC(=O)C1CCCCN1 (centres unmarked),,,"Sprague-Dawley rat, male","intrathecal, 30 mM, 10 min",,motor block,12 ± 7.8 % MPE
O=S(=O)(O)C(F)(F)C(F)(F)C(F)(F)C(F)(F)C(F)(F)C(F)(F)C(F)(F)C(F)(F)C(F)(F)C(F)(F)F,,"RNA-seq pathway analysis, item: cholesterol biosynthesis genes",liver spheroids,"concentration not given, 24 h and 10 d",,gene expression,decreased
C[C@H](N)Cn1ncc2ccc3c(c21)CCCO3,,DOM stimulus generalization,rat trained on DOM,"intraperitoneal, training dose 1.0 mg/kg DOM",,ED50,0.18 µmol/kg
C[C@H]1CN(c2n[nH]c3nc(N[C@H]4CC[C@H](NS(=O)(=O)CCC(F)(F)F)CC4)ncc23)CCO1,"Protein kinase C delta type (PRKCD, Homo sapiens, UniProt Q05655)",biochemical,,,,IC50,≥ 20 µM
CN1CCN(S(=O)(=O)c2cc([N+](=O)[O-])ccc2N(CCOS(C)(=O)=O)CCOS(C)(=O)=O)CC1,,,"NSG mice, sample BI PDX","intraperitoneal, 25 mg/kg weekly x3",relative to: treated over vehicle,EFS ratio (T/C),7.5
CC(C)CCCCCCCCC[C@@H]1CC(=O)N[C@@H](CCC(=O)O)C(=O)N[C@@H](CC(C)C)C(=O)N[C@H](CC(C)C)C(=O)N[C@@H](C(C)C)C(=O)N[C@@H](CC(=O)O)C(=O)N[C@H](CC(C)C)C(=O)N[C@@H](CC(C)C)C(=O)O1,,calcein leakage,DOPC/DOPG/CHOL liposomes,"concentration not given, added: 20 wt% PEG-8000",,fusion time constant,12 ± 3 min
Cc1cn(-c2cc(NC(=O)c3ccc(C)c(Nc4nccc(-c5cccnc5)n4)c3)cc(C(F)(F)F)c2)cn1,,,human patients,"dose not given, 6 months vs baseline, within treated group, unit not given",relative to: baseline,ADAS-Cog maze time change,0.04
C=CC(=O)Nc1cc(Nc2ncc(Cl)c(Nc3ccccc3C(=O)C(=O)N(C)C)n2)c(OC)cc1N1CCN(C)CC1,,RECIST v1.1 best response,human EGFR T790M NSCLC,"oral, 200 mg/day, per-protocol set",,patients with stable disease,16.7%

# For quick reference, copied from above:
SMILES,target or system,test,test system,conditions,how to read,measurement,result
CC(C)CCCCCCCCC[C@@H]1CC(=O)N[C@@H](CCC(=O)O)C(=O)N[C@@H](CC(C)C)C(=O)N[C@H](CC(C)C)C(=O)N[C@@H](C(C)C)C(=O)N[C@@H](CC(=O)O)C(=O)N[C@H](CC(C)C)C(=O)N[C@@H](CC(C)C)C(=O)O1,,calcein leakage,DOPC/DOPG/CHOL liposomes,"concentration not given, added: 20 wt% PEG-8000",,fusion time constant,12 ± 3 min
C[C@H]1CN(c2n[nH]c3nc(N[C@H]4CC[C@H](NS(=O)(=O)CCC(F)(F)F)CC4)ncc23)CCO1,"Protein kinase C delta type (PRKCD, Homo sapiens, UniProt Q05655)",biochemical,,,,IC50,≥ 20 µM
CC[C@H](C)[C@@H]1NC(=O)[C@@H]2CCCN2C(=O)[C@H](CC(C)C)NC(=O)[C@H](CC(C)C)NC(=O)CNC(=O)[C@@H](NC(=O)[C@@H](NC(=O)[C@H](CC(=O)O)NC(=O)CNC(=O)[C@@H](NC(=O)[C@H](C)NC(=O)CNC(=O)[C@H](CCCCN)NC(=O)[C@H](CC(C)C)NC(=O)[C@H](CC(C)C)NC(=O)[C@H](CCCCN)NC(=O)CNC(=O)[C@@H](NC(=O)[C@@H](N)CC(C)C)C(C)C)C(C)C)C(C)C)CSSC[C@@H](C(=O)O)NC1=O,,"RNA-seq, item: Lck","mouse, traumatic brain injury model, frontal cortex and hippocampus",dose not given,relative to: TBI alone,log2 fold change,-1.48
